{"data": "Assay results pooled from the literature", "note": "A part holds a random share of what one study measured. “And” joins repeats or separate records; there may be more than shown.", "sequence of UniProt P00519 (whole entry, unmodified, looked up)": "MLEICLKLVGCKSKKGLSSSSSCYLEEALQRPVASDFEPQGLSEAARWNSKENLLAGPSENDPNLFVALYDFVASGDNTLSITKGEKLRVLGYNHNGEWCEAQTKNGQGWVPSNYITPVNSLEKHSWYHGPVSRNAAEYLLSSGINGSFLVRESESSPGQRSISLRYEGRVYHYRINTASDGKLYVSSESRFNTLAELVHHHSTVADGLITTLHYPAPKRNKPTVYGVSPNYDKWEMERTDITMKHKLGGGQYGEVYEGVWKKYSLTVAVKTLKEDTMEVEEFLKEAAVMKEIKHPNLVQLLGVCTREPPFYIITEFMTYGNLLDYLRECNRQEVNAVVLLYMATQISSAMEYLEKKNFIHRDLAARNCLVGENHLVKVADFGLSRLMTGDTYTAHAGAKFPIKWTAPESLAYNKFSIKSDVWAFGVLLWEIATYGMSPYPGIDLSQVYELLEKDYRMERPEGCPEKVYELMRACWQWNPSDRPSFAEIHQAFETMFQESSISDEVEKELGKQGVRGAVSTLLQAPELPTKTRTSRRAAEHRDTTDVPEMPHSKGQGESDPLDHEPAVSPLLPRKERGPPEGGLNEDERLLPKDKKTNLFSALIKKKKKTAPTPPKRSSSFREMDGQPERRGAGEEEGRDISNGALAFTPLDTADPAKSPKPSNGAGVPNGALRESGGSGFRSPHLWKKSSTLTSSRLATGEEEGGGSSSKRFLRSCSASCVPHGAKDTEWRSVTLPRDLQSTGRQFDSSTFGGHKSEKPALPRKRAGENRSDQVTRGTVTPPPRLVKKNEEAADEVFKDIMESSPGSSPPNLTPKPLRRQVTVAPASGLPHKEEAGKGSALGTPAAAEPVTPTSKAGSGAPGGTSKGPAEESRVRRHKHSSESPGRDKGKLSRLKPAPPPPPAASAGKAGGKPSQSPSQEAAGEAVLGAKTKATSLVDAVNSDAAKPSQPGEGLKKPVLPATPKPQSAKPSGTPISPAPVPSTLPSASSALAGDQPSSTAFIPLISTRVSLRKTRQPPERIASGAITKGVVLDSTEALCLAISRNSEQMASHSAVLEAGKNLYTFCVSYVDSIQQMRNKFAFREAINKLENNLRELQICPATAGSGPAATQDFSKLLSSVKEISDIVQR", "sequence of UniProt P54760 (whole entry, looked up)": "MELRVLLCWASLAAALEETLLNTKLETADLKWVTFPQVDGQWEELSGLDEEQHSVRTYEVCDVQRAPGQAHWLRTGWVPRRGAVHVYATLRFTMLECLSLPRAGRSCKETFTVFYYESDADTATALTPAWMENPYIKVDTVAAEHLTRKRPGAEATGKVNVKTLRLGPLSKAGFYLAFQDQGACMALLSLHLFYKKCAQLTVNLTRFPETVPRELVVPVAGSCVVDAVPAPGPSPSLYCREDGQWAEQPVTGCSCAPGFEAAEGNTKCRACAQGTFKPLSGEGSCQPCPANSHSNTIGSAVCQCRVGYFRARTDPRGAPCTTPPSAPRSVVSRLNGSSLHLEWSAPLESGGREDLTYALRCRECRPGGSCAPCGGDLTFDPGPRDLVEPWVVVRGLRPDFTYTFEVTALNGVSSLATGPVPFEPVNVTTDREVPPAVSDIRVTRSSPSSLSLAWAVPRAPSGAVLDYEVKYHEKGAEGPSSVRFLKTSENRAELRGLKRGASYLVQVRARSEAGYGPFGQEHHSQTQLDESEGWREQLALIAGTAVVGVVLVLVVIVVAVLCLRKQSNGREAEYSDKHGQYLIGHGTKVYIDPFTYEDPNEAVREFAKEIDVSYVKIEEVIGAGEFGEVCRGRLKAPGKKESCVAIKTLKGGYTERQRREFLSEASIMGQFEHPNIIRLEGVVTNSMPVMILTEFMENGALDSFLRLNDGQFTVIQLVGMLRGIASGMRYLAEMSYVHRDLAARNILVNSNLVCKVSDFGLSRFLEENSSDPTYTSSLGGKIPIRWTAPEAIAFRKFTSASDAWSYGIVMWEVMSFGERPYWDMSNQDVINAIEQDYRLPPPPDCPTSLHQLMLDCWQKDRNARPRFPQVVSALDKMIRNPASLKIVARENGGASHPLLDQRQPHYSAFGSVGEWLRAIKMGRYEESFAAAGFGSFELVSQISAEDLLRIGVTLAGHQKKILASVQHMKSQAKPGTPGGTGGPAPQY"}
{"data": "Sample 1", "Structure (SMILES)": "C[C@@H]1CN(c2ccc(-c3cc(C(=O)NCCOCCOCCOCCOCCOCCOCCNC(=O)/C=C/c4[nH]cc(C(=O)N[C@@H](CC(N)=O)c5ccc(F)c(Cl)c5)c4-c4ccc(Cl)cc4F)ccc3F)cc2NC(=O)c2ccc(F)cc2C(F)(F)F)C[C@H](C)N1C", "effect on": "thermal unfolding", "method": "differential scanning fluorimetry", "tested at": "5.5 µM", "reading": "higher = more unfolded", "WDR5": "WD repeat-containing protein 5 (WDR5, Homo sapiens, UniProt P61964)", "DCAF1": "DDB1- and CUL4-associated factor 1 (DCAF1, Homo sapiens, UniProt Q9Y4B6)", "sequence of UniProt Q9Y4B6 (whole entry, looked up)": "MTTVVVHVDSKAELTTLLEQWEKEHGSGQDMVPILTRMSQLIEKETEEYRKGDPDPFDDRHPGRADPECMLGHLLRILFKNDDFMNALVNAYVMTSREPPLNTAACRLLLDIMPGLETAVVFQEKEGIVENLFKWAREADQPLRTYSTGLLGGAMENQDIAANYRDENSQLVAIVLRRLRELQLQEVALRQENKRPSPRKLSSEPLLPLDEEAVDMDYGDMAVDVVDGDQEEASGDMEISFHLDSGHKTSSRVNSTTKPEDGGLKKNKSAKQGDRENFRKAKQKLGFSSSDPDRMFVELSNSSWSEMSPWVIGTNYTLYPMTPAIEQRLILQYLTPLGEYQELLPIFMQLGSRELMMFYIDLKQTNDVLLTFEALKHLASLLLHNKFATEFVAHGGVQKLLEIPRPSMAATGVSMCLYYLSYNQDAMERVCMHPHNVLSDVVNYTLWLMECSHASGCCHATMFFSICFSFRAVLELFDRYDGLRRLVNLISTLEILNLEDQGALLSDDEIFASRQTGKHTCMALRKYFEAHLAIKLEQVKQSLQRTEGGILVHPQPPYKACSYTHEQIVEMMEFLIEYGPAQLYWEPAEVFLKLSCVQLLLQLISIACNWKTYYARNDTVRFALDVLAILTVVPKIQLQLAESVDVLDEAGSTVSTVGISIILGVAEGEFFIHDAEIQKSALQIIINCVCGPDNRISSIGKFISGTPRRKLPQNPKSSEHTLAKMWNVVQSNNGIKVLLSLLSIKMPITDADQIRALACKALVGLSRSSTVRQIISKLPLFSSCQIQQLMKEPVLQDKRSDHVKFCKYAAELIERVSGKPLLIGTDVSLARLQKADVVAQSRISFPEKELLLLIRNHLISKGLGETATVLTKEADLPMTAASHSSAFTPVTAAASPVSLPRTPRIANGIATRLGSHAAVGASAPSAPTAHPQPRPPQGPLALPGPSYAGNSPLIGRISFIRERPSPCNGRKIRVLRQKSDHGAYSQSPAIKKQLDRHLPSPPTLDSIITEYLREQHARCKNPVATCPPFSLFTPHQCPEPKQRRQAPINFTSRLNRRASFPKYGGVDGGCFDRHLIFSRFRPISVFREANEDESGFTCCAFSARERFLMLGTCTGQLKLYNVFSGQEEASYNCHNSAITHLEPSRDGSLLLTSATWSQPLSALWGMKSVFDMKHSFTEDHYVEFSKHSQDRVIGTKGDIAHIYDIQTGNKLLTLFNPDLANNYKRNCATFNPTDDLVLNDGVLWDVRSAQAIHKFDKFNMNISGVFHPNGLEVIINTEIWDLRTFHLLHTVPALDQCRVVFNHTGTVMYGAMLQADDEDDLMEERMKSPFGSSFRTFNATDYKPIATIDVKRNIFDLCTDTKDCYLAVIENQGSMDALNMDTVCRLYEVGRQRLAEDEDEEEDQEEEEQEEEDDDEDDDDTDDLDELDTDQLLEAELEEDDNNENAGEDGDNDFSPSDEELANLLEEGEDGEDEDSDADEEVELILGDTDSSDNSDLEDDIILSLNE"}
{"target": "WDR5", "setting": "50.2 °C", "SYPRO Orange fluorescence [a.u.]": 16500}
{"target": "WDR5", "setting": "32.2 °C", "SYPRO Orange fluorescence [a.u.]": 13700}
{"target": "WDR5", "setting": "85.61 °C", "SYPRO Orange fluorescence [a.u.]": 61300}
{"target": "WDR5", "setting": "64.41 °C", "SYPRO Orange fluorescence [a.u.]": 15800}
{"target": "WDR5", "setting": "84.81 °C", "SYPRO Orange fluorescence [a.u.]": 62400}
{"target": "DCAF1", "setting": "60.41 °C", "SYPRO Orange fluorescence [a.u.]": 48600}
{"target": "WDR5", "setting": "72.41 °C", "SYPRO Orange fluorescence [a.u.]": 37300}
{"target": "WDR5", "setting": "67.61 °C", "SYPRO Orange fluorescence [a.u.]": 20700}
{"target": "DCAF1", "setting": "76.01 °C", "SYPRO Orange fluorescence [a.u.]": 42900}
{"target": "WDR5", "setting": "42.6 °C", "SYPRO Orange fluorescence [a.u.]": 14500}
{"target": "WDR5", "setting": "83.21 °C", "SYPRO Orange fluorescence [a.u.]": 64600}
{"data": "Sample 2", "SMILES": "Cc1ncsc1-c1ccc(C(CO)NC(=O)C2CC(O)CN2C(=O)C(NC(=O)c2ccc(COc3c(-c4c(C)c(F)cc5[nH]ncc45)c(C4CC4)cc4c(N5CC6CC5CN6)nc(OC5CCOCC5)nc34)cc2)C(C)C)cc1 (stereo not shown)", "cell line": "AsPC-1", "method": "in-cell ELISA"}
{"setting": "30 nM, per-experiment values", "phospho-ERK1/2 level": "86% and 75.2% and 81.5%"}
{"setting": "10 nM, individual replicates", "phospho-ERK1/2 level": "93.8% and 89.1% and 95.6% and 85% and 85.9%"}
{"setting": "1 nM, individual replicates", "phospho-ERK1/2 level": "98.3% and 96.6% and 87.6% and 94.9%"}
{"setting": "10 µM, per-experiment values", "phospho-ERK1/2 level": "11.2% and 13.9% and 5.89%"}
{"setting": "300 pM, per-experiment values", "phospho-ERK1/2 level": "98.9% and 94.2% and 99.6%"}
{"setting": "3 nM, per-experiment values", "phospho-ERK1/2 level": "96.8% and 98.5% and 89.4%"}
{"setting": "100 nM, per-experiment values", "phospho-ERK1/2 level": "34.3% and 31.4% and 53.1%"}
{"setting": "300 nM, individual replicates", "phospho-ERK1/2 level": "9.99% and 22.2% and 14.3% and 17.4% and 18% and 23.9%"}
{"data": "Sample 3", "SMILES": "CNc1ncc2cc(-c3cc(OC)cc(OC)c3Cl)c(=O)n(CCc3ccc(NC(=O)C(C#N)=CC(C)(C)N4CCOCC4)cc3)c2n1", "effect on": "kinase activity", "MINK1": "Misshapen-like kinase 1 (MINK1, Homo sapiens, UniProt Q8N4C8)", "sequence of UniProt Q8N4C8 (whole entry, looked up)": "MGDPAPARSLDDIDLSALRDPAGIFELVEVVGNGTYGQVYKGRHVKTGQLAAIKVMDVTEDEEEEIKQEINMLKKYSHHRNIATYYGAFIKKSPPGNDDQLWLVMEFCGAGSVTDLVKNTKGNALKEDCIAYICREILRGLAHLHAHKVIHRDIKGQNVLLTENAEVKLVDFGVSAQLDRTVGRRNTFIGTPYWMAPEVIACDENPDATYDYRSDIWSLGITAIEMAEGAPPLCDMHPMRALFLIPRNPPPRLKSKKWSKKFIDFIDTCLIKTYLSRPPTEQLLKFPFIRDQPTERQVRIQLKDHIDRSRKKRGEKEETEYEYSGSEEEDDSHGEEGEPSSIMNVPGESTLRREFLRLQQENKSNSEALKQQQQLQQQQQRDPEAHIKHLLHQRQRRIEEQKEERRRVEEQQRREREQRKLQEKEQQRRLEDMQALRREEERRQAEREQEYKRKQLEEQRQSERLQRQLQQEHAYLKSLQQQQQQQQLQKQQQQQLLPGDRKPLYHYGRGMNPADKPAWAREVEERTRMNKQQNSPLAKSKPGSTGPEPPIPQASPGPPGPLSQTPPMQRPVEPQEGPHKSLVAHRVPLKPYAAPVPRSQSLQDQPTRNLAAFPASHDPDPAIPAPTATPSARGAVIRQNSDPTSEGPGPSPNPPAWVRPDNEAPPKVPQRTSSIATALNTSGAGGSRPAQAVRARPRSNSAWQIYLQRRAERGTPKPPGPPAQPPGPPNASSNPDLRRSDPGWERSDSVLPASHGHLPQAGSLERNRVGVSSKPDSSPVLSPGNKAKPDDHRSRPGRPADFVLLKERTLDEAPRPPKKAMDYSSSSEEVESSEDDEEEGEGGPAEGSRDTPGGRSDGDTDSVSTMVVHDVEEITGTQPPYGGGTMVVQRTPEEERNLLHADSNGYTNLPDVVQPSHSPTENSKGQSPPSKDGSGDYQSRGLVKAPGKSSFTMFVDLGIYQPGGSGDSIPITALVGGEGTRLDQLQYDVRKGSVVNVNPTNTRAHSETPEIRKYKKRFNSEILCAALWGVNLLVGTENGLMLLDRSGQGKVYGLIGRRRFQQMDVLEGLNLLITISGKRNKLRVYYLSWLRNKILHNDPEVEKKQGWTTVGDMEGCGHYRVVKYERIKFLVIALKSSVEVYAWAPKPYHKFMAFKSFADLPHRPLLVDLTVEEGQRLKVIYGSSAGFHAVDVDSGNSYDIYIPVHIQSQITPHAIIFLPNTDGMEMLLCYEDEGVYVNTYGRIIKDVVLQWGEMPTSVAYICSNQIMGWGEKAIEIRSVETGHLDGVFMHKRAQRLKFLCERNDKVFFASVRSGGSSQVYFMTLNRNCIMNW"}
{"target": "BRAF (Homo sapiens, UniProt P15056)", "setting": "1 µM", "inhibition": "0%"}
{"target": "INSRR (Homo sapiens, UniProt P14616)", "setting": "1 µM", "inhibition": "1%"}
{"target": "NEK1 (Homo sapiens, UniProt Q96PY6)", "setting": "0.1 µM", "inhibition": "10%"}
{"target": "CAMK2G (Homo sapiens, UniProt Q13555)", "setting": "1 µM", "inhibition": "-2%"}
{"target": "MINK1", "setting": "1 µM", "inhibition": "-3%"}
{"target": "JAK2 (Homo sapiens, UniProt O60674)", "setting": "0.1 µM", "inhibition": "-1%"}
{"target": "JAK1 (Homo sapiens, UniProt P23458)", "setting": "1 µM", "inhibition": "0%"}
{"target": "PIM1 (Homo sapiens, UniProt P11309)", "setting": "0.1 µM", "inhibition": "-2%"}
{"target": "KIT (Homo sapiens, UniProt P10721)", "setting": "0.1 µM", "inhibition": "7%"}
{"target": "TSSK2 (Homo sapiens, UniProt Q96PF2)", "setting": "0.1 µM", "inhibition": "-2%"}
{"target": "MINK1", "setting": "0.1 µM", "inhibition": "9%"}
{"target": "EPHB4 (Homo sapiens, UniProt P54760)", "setting": "1 µM", "inhibition": "1%"}
{"target": "SRMS (Homo sapiens, UniProt Q9H3Y6)", "setting": "0.1 µM", "inhibition": "0%"}
{"target": "PAK2 (Homo sapiens, UniProt Q13177)", "setting": "1 µM", "inhibition": "0%"}
{"target": "MAP2K2 (Homo sapiens, UniProt P36507)", "setting": "0.1 µM", "inhibition": "-5%"}
{"data": "Sample 4", "Compound": "CC[C@@]1(c2cccc(-c3c(F)cncc3OC)c2)C2=C(Nc3n[nH]cc31)[C@H](F)C(C)(C)CC2=O (single isomer, unassigned)", "tested at": "1 µM"}
{"target": "NEK11 (Homo sapiens, UniProt Q8NG66)", "assay": "binding, competition with immobilised ligand", "remaining binding [%]": 75}
{"target": "Tyrosine-protein kinase ABL1, phosphorylated (ABL1, Homo sapiens, UniProt P00519, F317L)", "assay": "binding, competition with immobilised ligand", "remaining binding [%]": 70}
{"target": "MAPKAPK5 (Homo sapiens, UniProt Q8IW41)", "assay": "binding, competition with immobilised ligand", "remaining binding [%]": 89}
{"target": "Cyclin-dependent kinase 4, with cyclin D3 (CDK4, Homo sapiens, UniProt P11802)", "assay": "binding, competition with immobilised ligand", "remaining binding [%]": 86}
{"target": "FLT3 ITD/D835V, human", "assay": "KINOMEscan", "remaining binding [%]": 69}
{"target": "CSF1R (Homo sapiens, UniProt P07333)", "assay": "binding, competition with immobilised ligand", "remaining binding [%]": 96}
{"target": "Tyrosine-protein kinase ABL1, phosphorylated (ABL1, Homo sapiens, UniProt P00519, F317I)", "assay": "binding, competition with immobilised ligand", "remaining binding [%]": 63}
{"target": "FLT3 (Homo sapiens, UniProt P36888, D835V)", "assay": "kinase binding, KINOMEscan", "how to read": "relative to: DMSO control", "remaining binding [%]": 69}
{"target": "SRPK1 (Homo sapiens, UniProt Q96SB4)", "assay": "binding, competition with immobilised ligand", "remaining binding [%]": 81}
{"target": "FLT4 (Homo sapiens, UniProt P35916)", "assay": "kinase binding, KINOMEscan", "how to read": "relative to: DMSO control", "remaining binding [%]": 91}
{"target": "PIK3C2B (Homo sapiens, UniProt O00750)", "assay": "binding, competition with immobilised ligand", "remaining binding [%]": 70}
{"target": "EPHB4 (Homo sapiens, UniProt P54760)", "assay": "kinase binding, KINOMEscan", "how to read": "relative to: DMSO control", "remaining binding [%]": 100}
